Measured values gathered from unrelated publications.
Each numbered part is a random draw from the data of one study; scales do not carry over between parts. Changes are numbered by the printed parent chain.

Sample 1
Target: Ras GTPase-activating protein-binding protein 1, full length (G3BP1, Homo sapiens, UniProt Q13283)
UniProt Q13283, sequence (whole entry, looked up): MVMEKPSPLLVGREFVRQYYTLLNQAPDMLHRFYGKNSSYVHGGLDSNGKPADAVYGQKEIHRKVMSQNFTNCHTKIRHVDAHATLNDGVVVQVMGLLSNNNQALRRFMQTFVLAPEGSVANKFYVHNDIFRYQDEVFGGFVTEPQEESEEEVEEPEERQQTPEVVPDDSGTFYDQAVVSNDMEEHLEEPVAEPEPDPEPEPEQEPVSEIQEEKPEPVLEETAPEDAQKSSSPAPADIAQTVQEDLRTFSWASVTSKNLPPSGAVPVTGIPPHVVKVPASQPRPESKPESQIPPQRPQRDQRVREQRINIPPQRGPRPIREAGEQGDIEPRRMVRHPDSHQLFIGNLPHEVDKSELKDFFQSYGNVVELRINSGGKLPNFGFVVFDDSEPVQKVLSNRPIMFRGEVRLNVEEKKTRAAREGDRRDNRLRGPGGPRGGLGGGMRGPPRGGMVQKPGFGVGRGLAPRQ
Technique: RNA Bind-n-Seq
Form: RNA
Matrix: in vitro
Tested at: 200 nM
Notes: whole 134-nt RNA, ends assumed
Added: 150 mM LiCl
Baseline: input library
Direction: higher = stronger binding
Endpoint: log2 enrichment
Each molecule: 7-deaza-guanosine replaces G
Shared flanks, not repeated: GGGAGUUCUACAGUCCGACGAUC … UGGAAUUCUCGGGUGUCAAGG
AGUCCUGUGCUACACAUCGUAUGUACCGAAUCGGCCCCCGGCCCCCGGGGCCCCCGGAAAGUAUUAUGUUACGCCGUUCGGAUCUGCACU: -1.84
UGGGAGGUGGAUUUUGUUUAUUUUUUUAGCUCAUUUCCUGGGGUGGGAAUUUUUUUUUAAUAUGUGUCAUGAAUAAAGUUGUUUUUGAAA: -0.233
UCCUGUGCUACACAUCGUAUGUACCGAAUCGGGGUUUUUGGGGAGGGGUUUUUUUGGGGAAAGUAUUAUGUUACGCCGUUCGGAUCUGCA: 0.808
CCUCAAGUCCUGUGCUACACAUCGUAUGUACCGAAUCGGUUGGUUGGGUUGGGAAAGUAUUAUGUUACGCCGUUCGGAUCUGCACUUCCA: 0.543
UGCUGGCAGCCAAGCAGCAGCAGGAGAUGCUGGCAGCCAAGCGGCAGCAGGAGCUGGAGCAGCAGCGGCAGCGGGAGCAGCAGCGGCAGG: 0.113
UCCUGUGCUACACAUCGUAUGUACCGAAUCGGUUUUUUUGGGUUUUUUUGGUUUUUUUGGAAAGUAUUAUGUUACGCCGUUCGGAUCUGC: 0.493
UGGCCCUGGUGGCAUGCGGGGAGGAAGAGGUGGCCUCAUGGAUCGUGGUGGUCCCGGUGGAAUGUUCAGAGGUGGCCGUUGUGGAGACAG: -0.376
CACAGACAACACGCACCCACACAGACACAGAGGGAAGGGGUUGGGAUGGGGACAGGGUGCACAGCAGGGCGGGGUAGGACCCCAGGCCCU: -1.37
CAAGUCCUGUGCUACACAUCGUAUGUACCGAAUCGGGGUUUGGUUUGGGUUUGGGAAAGUAUUAUGUUACGCCGUUCGGAUCUGCACUUC: -0.614
UGUACUCGGAAGUUUCACUUACCAUCGACCACUCUCUGAUUCCGGAGGAGAGGCUCUCGCCCACCCCAUCCAUGCAGGAUGGGCUCGACC: 1.12
ACCAUGCAGGUGGGCAUCUUUGCGAAGUGGGGCAAGGGGGGGAUAGGGAGGGGGGUAACACUUUGGGAACAGGUGGUCCCAGGUCGUUUC: 0.38

Sample 2
Target: Histone acetyltransferase KAT6A, winged helix 1, GST fusion (KAT6A, Homo sapiens, UniProt Q92794, residues 1-85)
Technique: protein binding microarray
Form: double-stranded DNA, one strand shown
Matrix: in vitro
Tested at: not given
Notes: 8-mer, flanks averaged, mean of 2 arrays, mostly near background
Baseline: not given
Direction: higher = stronger binding
Endpoint: E-score
Residues (chain): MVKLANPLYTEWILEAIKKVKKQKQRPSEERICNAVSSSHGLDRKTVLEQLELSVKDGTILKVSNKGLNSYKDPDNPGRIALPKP
CGCTCTCC: 0.231
CGGTACTA: 0.278
CGACCCGA: 0.0992
CCCTCAGG: -0.0889
GATCCGGC: 0.18
ACGTGGTC: -0.184
CGAATACC: 0.0466
ATAGAACA: -0.21
AATCACCA: -0.118
TGGGGGAA: -0.0795
ATGATACA: -0.156
ATCGGTGC: -0.0432
CATCCAAC: -0.103
CACCACGC: 0.106
AGTTCAAA: -0.109
CTCTCAGA: -0.117
CCGATTTC: -0.0274
CGTATCGC: 0.274
GTGCTCCA: -0.161
ACTTGGCA: -0.298
AACAGGCT: -0.129
ACAAATTG: -0.175
CCCTTGGA: -0.171

Sample 3
Target: RNA binding protein fox-1 homolog 2, RRM domain, GST-SBP tag (RBFOX2, Homo sapiens, UniProt O43251-10, residues 100-194)
Technique: RNA Bind-n-Seq
Form: RNA
Matrix: in vitro
Tested at: 365 nM
Notes: natural RNA segment, single round, ends assumed
Baseline: no-protein control
Direction: higher = stronger binding
Endpoint: RBNS enrichment (R)
Shared flanks, not repeated: GGGAGUUCUACAGUCCGACGAUC … UGGAAUUCUCGGGUGCCAA
Construct (chain): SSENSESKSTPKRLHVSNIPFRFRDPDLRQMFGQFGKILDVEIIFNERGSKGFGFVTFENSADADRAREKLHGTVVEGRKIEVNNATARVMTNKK
UUCCCAGCCAUGUUGCUGCUUUUGGCAUGGUCGCUUCUCUGAGGUUCACCUAGGCUUUCACAGCAAAAGUUGGGUGGAAAGAGAAAUUUUUAUUUGUGAUGACACAAUAG: 0.25
UGCCUCUCUGUGCUUGGCUCUGGCAGAAGGCACCCAGUGACAUCAGGCAUCAGGCCCAGUGACAGUGCACCAAAGACACAGAGCCUGGAAGGGCUGUCGGGACAUACUUU: 0.341
GUCUUUGUUAUUAAAGGAACCUGCUGAUAAGUACAAGUGUGACCAUCUCAUUCAAAUGUUUGUUGUUAUGAUGCAAAUGGAUAUUGGUUUCAAUAGAAGCUGGAUCCUUA: 0.99
GCACCCCCAGAAUGACCUGGCCGCAGUGAGGCGGAUUGAGAAGGAGCUCCCAGGAGGGGCUUCUGGGCAGACUCUGGUCAAGAAGCAUCGUGUCUGGCGUUGUGGGGAUG: 0.903
GUUUGAGGAGGUAGAGAUAUGUGUAUCCAUAGGAAGAGAUCUGUCAGAACAGGCAGCUGUUGAGCUCGGGGUGUCUUCCCCAAGGCAUGUGGCUCAGCAGCAAGAAAGGC: 5.4
GAUCUCAGCUCACUACAGCCUCCACCUCGUGGGUUCAAACAGUUGUGCUGCCUCAGCUUCCCGAGUAGCUAGGAUUACAGGUGCAUGCCACCACACCUGGCUAAUUUUUG: 0.342
UUAGCUAUUGUUUGCCUGCACAUACAUGUUGUAAUAUGCACAGUGAUUACAACCUUUAAAGCAAGAGGAGGCGAGUUAAUUUGGAUGAGUGUGAUUUUGCUGAUUGAAUG: 9.62
UACUCAUGGGUGGAGGAGACCAGUGCCGACCCCGUGAGAGCUGAAGGUGAUGCUGAGGUCCCUUGUGGAAGCCUCUCUUGGGAAUCUCAACUGCAGAGGAGCUGCCCUCU: 0.248
AGCUAAGCAGUGUAUUUUAAUCGAAGAAGAAACCAAAAUCUGUUCUAAGAACUGGGGUUCUAUACCUCUGUAGGCCCUUUAUUGAACAGCAUUAUUCACUAGAUGCAAAG: 0.689
GGGGUAGUUGAUCUUCAGUCUCCAGGAGCCUGGGUACCGAGAUGAGAAAAGCCUGAACUAUUUAUUCAAAACAUGACCACUCUGGGCUAUAGAAGAUGCUGAGUGUGUUU: 1.14
GAAUAUAGAUGUACAAAUCAGUUUGAGCUCUCCUUACAUACUUUGUGUCAGUAUGCAGGACUGCUAUGUACUCGGCAACCAUCCACUGUAGUCACAGCUUCUACUUGCAU: 1.06
UGCCUUUCAUCACCAUUUUUCCUGAGUAGGGCUUAGUUUUAUUCUGGAAAGACAUCUCCAAGGUGAGGUCCACCCCCACAGCAGACCUCAAGUAGAAAUUGCCCAAUUUU: 0.313

Sample 4
Target: ABI1, truncated, D143A, DHFR fusion (Arabidopsis thaliana)
Technique: DHFR PCA, deep sequencing
Matrix: yeast
Notes: methotrexate growth selection, single substitutions
Added: (+)-ABA 0 µM
Baseline: wild-type fitted maximum
Direction: higher = stronger binding
Endpoint: relative binding score
Parent: PYL1, truncated, DHFR fusion (Arabidopsis thaliana); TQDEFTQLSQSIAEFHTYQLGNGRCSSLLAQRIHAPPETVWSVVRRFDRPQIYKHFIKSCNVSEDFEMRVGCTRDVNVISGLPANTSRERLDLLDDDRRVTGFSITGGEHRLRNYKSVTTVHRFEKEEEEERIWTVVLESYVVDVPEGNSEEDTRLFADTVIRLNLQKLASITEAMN; partner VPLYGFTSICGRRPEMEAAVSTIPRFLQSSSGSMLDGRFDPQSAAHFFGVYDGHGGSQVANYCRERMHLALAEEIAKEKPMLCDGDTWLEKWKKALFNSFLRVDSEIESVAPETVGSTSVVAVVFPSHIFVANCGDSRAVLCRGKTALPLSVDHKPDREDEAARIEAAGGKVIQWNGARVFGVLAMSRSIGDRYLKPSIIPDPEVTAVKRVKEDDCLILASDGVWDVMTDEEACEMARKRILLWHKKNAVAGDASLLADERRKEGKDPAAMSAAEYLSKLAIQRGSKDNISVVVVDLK
V145E: -2.73%
R74G: 3.78%
A158T: 1.77%
E127I: 14.7%
S11R: -0.106%
S27T: -2.06%
E109H: 3.18%
L8V: 1.73%
L94S: -0.181%
K54A: 1.61%
Y53C: -2.17%
H55N: 9.11%
F103L: 0.759%
D48K: -5.46%
P50L: 2.15%
A170T: 0.295%
D3P: 19.6%
Q10R: 16.6%
S140E: 6.42%

For quick reference, copied from above (sample 2):
ACGTGGTC: -0.184
CGAATACC: 0.0466
ATAGAACA: -0.21
AATCACCA: -0.118
TGGGGGAA: -0.0795
ATGATACA: -0.156
ATCGGTGC: -0.0432
CATCCAAC: -0.103
CACCACGC: 0.106
AGTTCAAA: -0.109
